# Measurements from different studies.
# Every numbered part comes from another study and shows a few of its results, in no order. Changes are numbered by the printed parent chain.
# Sequence of UniProt Q9UKS7 (whole entry, looked up): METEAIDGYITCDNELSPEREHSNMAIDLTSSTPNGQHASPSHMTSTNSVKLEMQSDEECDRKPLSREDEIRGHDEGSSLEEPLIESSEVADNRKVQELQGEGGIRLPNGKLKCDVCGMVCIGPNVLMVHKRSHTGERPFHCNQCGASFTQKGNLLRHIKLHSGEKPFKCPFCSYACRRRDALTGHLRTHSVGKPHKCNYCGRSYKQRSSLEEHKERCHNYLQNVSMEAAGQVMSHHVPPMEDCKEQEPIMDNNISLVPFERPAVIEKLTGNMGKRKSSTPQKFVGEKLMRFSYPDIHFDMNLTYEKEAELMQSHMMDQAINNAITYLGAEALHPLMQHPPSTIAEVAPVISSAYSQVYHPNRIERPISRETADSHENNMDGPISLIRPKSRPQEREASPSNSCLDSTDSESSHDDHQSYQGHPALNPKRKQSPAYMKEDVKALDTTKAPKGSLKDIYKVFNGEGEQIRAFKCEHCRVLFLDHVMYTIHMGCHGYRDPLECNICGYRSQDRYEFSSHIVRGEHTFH
# Sequence of UniProt Q96SW2 (whole entry, looked up): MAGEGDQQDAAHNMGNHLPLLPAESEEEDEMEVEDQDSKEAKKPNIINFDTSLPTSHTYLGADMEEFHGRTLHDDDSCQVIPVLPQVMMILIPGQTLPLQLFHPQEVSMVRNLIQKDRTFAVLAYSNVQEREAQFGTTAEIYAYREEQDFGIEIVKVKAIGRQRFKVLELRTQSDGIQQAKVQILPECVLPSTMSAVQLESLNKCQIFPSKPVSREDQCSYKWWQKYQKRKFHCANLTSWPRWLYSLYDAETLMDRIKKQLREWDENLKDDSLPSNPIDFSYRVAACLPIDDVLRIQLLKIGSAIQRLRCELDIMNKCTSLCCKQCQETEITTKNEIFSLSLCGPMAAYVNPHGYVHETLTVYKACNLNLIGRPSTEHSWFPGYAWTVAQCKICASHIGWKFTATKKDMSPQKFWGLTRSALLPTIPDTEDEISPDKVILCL

# Block 1
# Target: CCND2, cyclin fold, Cln2 fusion (human)
# Method: yeast growth competition, sequencing
# Sample: yeast
# Notes: weak parent motif
# Relative to: not given
# Direction: higher = stronger binding
# Starting sequence: viral docking peptide; TSVRRALFTGGSD; partner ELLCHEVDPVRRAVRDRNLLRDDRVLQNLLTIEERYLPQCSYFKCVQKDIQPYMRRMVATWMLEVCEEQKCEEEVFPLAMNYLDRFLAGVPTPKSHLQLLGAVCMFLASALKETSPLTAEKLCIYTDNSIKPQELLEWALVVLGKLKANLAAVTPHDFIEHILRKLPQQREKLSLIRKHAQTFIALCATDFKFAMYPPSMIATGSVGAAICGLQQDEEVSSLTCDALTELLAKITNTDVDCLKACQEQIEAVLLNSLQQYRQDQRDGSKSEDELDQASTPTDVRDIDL
Change,normalised enrichment score
R4T,0.0787
S12R,-0.229
F8L,0.2
V3L,0.175
R5C,-0.25
S2T,0.221
R5F,-0.279
F8V,0.22

# Block 2
# Target: tungstate, free oxyanion
# Method: microfluidic competitive inhibition
# Sample: in vitro, cell-free expressed
# Concentration: not given
# Notes: derived from inhibition constants, unchanged parent 2230 nM
# Direction: lower = stronger binding
# Starting sequence: PafA, mature enzyme, eGFP fusion (Elizabethkingia meningoseptica, UniProt Q9KJX5); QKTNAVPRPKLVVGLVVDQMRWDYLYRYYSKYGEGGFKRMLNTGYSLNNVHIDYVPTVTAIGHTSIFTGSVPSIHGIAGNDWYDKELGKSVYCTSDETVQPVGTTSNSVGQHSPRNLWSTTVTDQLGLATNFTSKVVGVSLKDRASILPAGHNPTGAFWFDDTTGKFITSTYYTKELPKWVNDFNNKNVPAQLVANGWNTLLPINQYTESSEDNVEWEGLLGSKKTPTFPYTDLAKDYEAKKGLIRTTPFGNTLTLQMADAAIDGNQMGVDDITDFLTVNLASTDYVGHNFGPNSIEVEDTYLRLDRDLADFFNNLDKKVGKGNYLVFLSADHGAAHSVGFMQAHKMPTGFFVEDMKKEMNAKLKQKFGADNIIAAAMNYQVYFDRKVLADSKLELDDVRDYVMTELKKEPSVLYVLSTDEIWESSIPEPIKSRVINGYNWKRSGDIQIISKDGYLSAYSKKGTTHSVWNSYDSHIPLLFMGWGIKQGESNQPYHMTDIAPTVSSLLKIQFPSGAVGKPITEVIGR
Change,oxyanion analog dissociation constant
P149V,894 nM
F184V,1.38 µM
G103V,2.19 µM
L201V,2.32 µM
V136A,1.97 µM
Y207G,1.4 µM
Y29V,1.89 µM
N361G,2.34 µM

# Mixed results
SMILES,target,test,test system,setting,endpoint,value
COc1ccc2c(c1)O[C@@H](c1ccc(OC)c(OC)c1)C[C@H]2NC(=O)C1(c2ccc3c(c2)OC(F)(F)O3)CC1,"CDPK1 (Plasmodium falciparum, UniProt P62344)","cell-free assay, competition with immobilised ligand",,1 µM,remaining binding,70%
O=C1CCC(N2Cc3c(ccc4c3OCC43CCN(Cc4ccccc4)CC3)C2=O)C(=O)N1 (stereo not drawn),"CRBN/Zinc finger protein Helios (Homo sapiens, UniProt Q96SW2+Q9UKS7)","degrader, HiBiT",HEK293,1.524 nM,protein remaining,92.8%

# For quick reference, copied from above (block 1):
Change,normalised enrichment score
R4T,0.0787
S12R,-0.229
